# Assay results collected from several papers.
# Compare with care: the assays were run in different laboratories. “And” joins repeats or separate records; there may be more than shown. Numbers after ± are the reported error.
SMILES,target or system,test,test system,setting,how to read,endpoint,value
Nc1ncnc2c1ncn2[C@@H]1O[C@H](CO)[C@@H](O)[C@H]1O,unstimulated human T cells,,,"316 nM, 72 h",higher = more viable cells,viability,75.4 a.u. and 82.5 a.u. and 84.6 a.u.
C[S+]([O-])c1ccc(-c2nc(-c3ccncc3)c(-c3ccc(F)cc3)[nH]2)cc1 (centres unmarked),mouse bone marrow macrophages,TRAP-positive multinucleated cells,,"10 µM, 96 h, late stage, together with: RANKL",baseline: control,osteoclastogenesis,62%
C=Cc1c2[n-]c(c1C)/C=c1\[n-]/c(c(C)c1C=C)=C\c1[n-]c(c(CCC(=O)O)c1C)/C=c1\[n-]c(c(C)c1CCC(=O)O)=C2.[Sn+4],SH-SY5Y,"RNA-seq, refers to: NEAT1",,"5 µM, 5 h",baseline: untreated,log2 fold change,2.01
CNc1ncc2cc(-c3cc(NC(=O)NCCC(C)(C)C)c(F)cc3C)c(C)nc2n1,SK-MEL-239 (BRAF V600E),"ERK phosphorylation, Western blot",,1 h,,IC75,92 nM
N#Cc1cc(Nc2ncc3c(n2)CCCCC3=O)cs1,mouse CD4+CD25+ Treg cells,T cell proliferation,,dose not given,,Treg suppressive function,no effect
CC(C)NCC(O)c1ccc(O)c(O)c1 (centres unmarked),mouse ventricular cardiomyocytes,,,"dose not given, 0.219 s",,sarcomere length,1.78 µm
O=P1(C2CCCCC2)CCCCC1,PC-3,MTT,,72 h,baseline: IC50 HaCaT over IC50 PC-3,selectivity index,1.5
Nc1ccc2cc3ccc(N)cc3nc2c1,BT-16,"cell viability, MTT",,"10 µM, 72 h",,inhibition,93.5%
CCc1cnc(N2CCC(c3nc(COc4ccc(-n5cnnn5)cc4)cs3)CC2)nc1,HEK293T,"RNA-seq, refers to: ATF3 mRNA",,"10 µM, 6 h",baseline: vehicle,log2 fold change,1.31
CC(=O)c1nn(-c2ccc(Cl)cc2)/c(=N/N=C(\C)c2ccc(NC(=O)c3ccc(C)cc3)cc2)s1,HepG2,,,1.25 µM,,viability,18%
CCn1cc(-c2cc(Cn3ccoc3=N)cc3c2CCN([C@@H](C)c2cc(OC)ccn2)C3=O)c(C(F)(F)F)n1,JVM-2,"cell growth, inhibitor",,120 h,,EC50,1190 nM
CSc1cc(Oc2ccnc3[nH]c(=O)cnc23)ccc1NC(=O)Nc1cc(C(C)(C)C)nn1-c1ccccc1,patient-derived cell line clone B,"RPPA, refers to: phosphorylated Rb",human,"1 µM, 4 h",baseline: DMSO,phospho ratio,0.98
Oc1nc2nonc2cc1Nc1ccc(F)cc1,L6,,,concentration not given,,activity,inactive
CCOc1cc(-c2nncn2C)ccc1Nc1ncc2cc(C)nc(N[C@@H](C)C(C)(C)C)c2n1,CAL-51,cell growth,,72 h,,GI50,43 nM
Cc1cc(NS(=O)(=O)c2ccc(NC(=O)/C(C#N)=C/c3ccc(N4CCCCC4)cc3)cc2)no1,HCT-116,annexin V/7-AAD flow cytometry,,"IC50, 48 h",,early apoptotic cells,41.2%
CCN(CCO)CCCC(C)Nc1ccnc2cc(Cl)ccc12 (centres unmarked),human PBMC,"qRT-PCR, refers to: IFI44 mRNA",,"1000 nM, together with: ssRNA",,inhibition,4 ± 19%
C[C@H]1[C@@H](O)O[C@@H]2O[C@@]3(C)CC[C@H]4[C@H](C)CC[C@@H]1[C@@]24OO3,THP-1,"annexin V/PI flow cytometry, refers to: annexin V+/PI-",,"0.2 µM, 24 h",,early apoptotic cells,2.7%
C=CC(=O)Nc1cc(Nc2nccc(-c3cn(C)c4ccccc34)n2)c(OC)cc1N(C)CCN(C)C,NCI-H2073 ASV knock-in,"cell proliferation, CellTiter-Glo",,"72 h, geometric mean",,IC50,69.6 nM
COC(=O)[C@]12CCC(C)(C)C[C@H]1[C@H]1C(=O)C=C3[C@@]4(C)C=C(C#N)C(=O)C(C)(C)[C@@H]4CC[C@@]3(C)[C@]1(C)CC2,HepG2,"high content imaging, refers to: DNA structure",,"6 h, distribution mode 2",,point of departure,1.17 µM
O=C(Nc1c[nH]nc1-c1nc2ccc(CN3CCOCC3)cc2[nH]1)NC1CC1,BT-16,"cell viability, MTT",,"10 µM, 72 h",,inhibition,95.6%
C=CCn1c(=O)c2cnc(Nc3ccc(N4CCN(C)CC4)cc3)nc2n1-c1ccc2c(n1)[C@@](O)(CC)CC2,Kuramochi,flow cytometry,,concentration not given,,G1 phase cells,37%
CCn1cc(-c2cc(Cn3ccnc3)cc3c2CCN([C@H](c2cc(OC)ccn2)C2CC2)C3=O)c(C(F)(F)F)n1,ZR-75-1,"cell growth, inhibitor",,120 h,,EC50,29600 nM
CCCCN1C[C@H](O)[C@@H](O)[C@@H](O)[C@H]1CO,sample BA patient fibroblasts,"Gb3 level lowering, LC-MS/MS, refers to: Gb3 d18:1/22:0",,216 h,,IC50,32500 nM
Cn1cc(-c2ccc(-c3cncc(Cl)c3N3CCC4(CCNC4=O)CC3)cc2)cn1,COLO 205,"gene expression, microarray, refers to: SPEF1 mRNA",,"concentration not given, 2 h",baseline: untreated cells,log2 fold change,1.12
CCC(C)(C)C(=O)O[C@H]1C[C@@H](C)C=C2C=C[C@H](C)[C@H](CC[C@@H]3C[C@@H](O)CC(=O)O3)[C@H]21,BT-16,"cell viability, MTT",,"10 µM, 72 h",,inhibition,94.1%
COc1cc(-c2nnc3n2CCC3)ccc1Nc1ncc2cc(C)nc(NCC(C)(C)C)c2n1,CAL-51,cell growth,,72 h,,GI50,380 nM
Cc1cc(C2CCCCC2)n(O)c(=O)c1.NCCO,BT-16,"cell viability, MTT",,"10 µM, 72 h",,inhibition,87%
CCN(CC)CCCC(C)Nc1ccnc2cc(Cl)ccc12 (centres unmarked),N27 rat dopaminergic cells,,,"dose not given, 36 h",,autophagy flux,inhibited
CNC(=O)c1ccc(Nc2ncc(C(F)(F)F)c(NCc3nccnc3N(C)S(C)(=O)=O)n2)cc1,BT-16,"cell viability, MTT",,"10 µM, 72 h",,inhibition,90.1%
O=c1[nH]nc(OCCCc2ccc(Cl)cc2)c(NCc2cccnc2)c1Br,HEK-293T,"RNA-seq GSEA, refers to: HALLMARK_XENOBIOTIC_METABOLISM",,concentration not given,direction not given,normalized enrichment score,0.991
C=C1C(=O)O[C@H]2[C@H]1CC/C(C)=C/CC[C@@]1(C)O[C@@H]21,BT-16,"cell viability, MTT",,"10 µM, 72 h",,inhibition,94.9%
O=C(/C=C/C=C/C=C/C1CCCCC1)NC1=C[C@@](O)(/C=C/C=C/C=C/C(=O)NC2=C(O)CCC2=O)[C@@H]2O[C@@H]2C1=O,TE-15,"cell growth, CellTiter-Glo",,78 h,,GI50,12500 nM
O=C(C[C@@H](C(F)F)n1ccc(F)n1)N1CCC(O)(Cn2cnc3c(cnn3-c3ccc(F)cc3)c2=O)CC1,CHP-212 parental,PI flow cytometry,,"0.3 µM, 24 h",,G1 phase cells,71.7%
COc1cnc2cccc(N3CCc4c(cc(Cn5ccnc5C)cc4-c4cn(C)nc4C(F)(F)F)C3=O)c2c1,SH-10-TC,"cell growth, inhibitor",,120 h,,EC50,853 nM
CC[C@H](C)C(=O)O[C@H]1C[C@@H](C)C=C2C=C[C@H](C)[C@H](CC[C@@H]3C[C@@H](O)CC(=O)O3)[C@H]21,BT-16,"cell viability, MTT",,"10 µM, 72 h",,inhibition,93.9%
Cl.Cl.NCCNS(=O)(=O)c1ccc(Cl)c2ccncc12,SK-OV-3,ATP,3D gellan gum culture,"1 µM, 4 days",baseline: untreated,relative cell number,98.1%
Cn1cc(Nc2nccc(-c3ccc4c(c3)CN(C3COC3)CC[C@H]4NC(=O)c3cn(C(C)(C)C)nn3)n2)cn1,mouse splenic B cells,refers to: 3-phosphoinositide degradation,,"30 mg/kg, IgD-activated in vivo","baseline: vehicle, direction not given",pathway activation z-score,0.688
CCCCc1nc(Cl)c(CO)n1Cc1ccc(-c2ccccc2-c2nn[nH]n2)cc1,human PBMC,"RNA-seq, refers to: NEFH mRNA",,"10 µg/mL, 24 h",baseline: untreated control,log2 fold change,2.21
CC(C)C[C@H](NC(=O)C[C@H](O)[C@H](CC(C)C)NC(=O)[C@H](Cc1c[nH]cn1)NC(=O)CNC(=O)[C@@H](NC(=O)[C@H](C)NC(=O)[C@H](Cc1c[nH]c2ccccc12)NC(=O)[C@H](CCC(N)=O)NC(=O)[C@@H](Cc1ccccc1)NC(=O)COCCOCCNC(=O)CCC(C(=O)O)N1CCN(CC(=O)O)CCN(CC(=O)O)CCN(CC(=O)O)CC1)C(C)C)C(N)=O (some centres unmarked) [lutetium-177 labelled],,,"BALB/c nu/nu mice, carcass","500 pmol, 1 h, together with: PA 300 µg",,tissue uptake,3 ± 1 %ID
Cc1ccc(CNC(=O)Cn2cc(CSc3nc4ccccc4[nH]3)nn2)cc1,HEK293,MTT,,500 ppm,,cytotoxicity,90.9%
Cc1cccc(C)c1OCC(=O)N[C@@H](Cc1ccccc1)[C@@H](O)C[C@H](Cc1ccccc1)NC(=O)[C@H](C(C)C)N1CCCNC1=O,ΔE-expressing cells,"ΔE mislocalization, high-content imaging",,,,maximal efficacy,70%
CCCCCCCCCCCCCCCC[N+](C)(C)CCN(Cc1ccc(OC)cc1)c1ncccn1,BT-16,"cell viability, MTT",,"10 µM, 72 h",,inhibition,94.8%
COc1cc([C@@H]2c3cc4c(cc3[C@@H](O[C@@H]3O[C@@H]5CO[C@@H](C)O[C@H]5[C@H](O)[C@H]3O)[C@H]3COC(=O)[C@H]23)OCO4)cc(OC)c1O,HepG2 spheroids,"flow cytometry, refers to: Ki67",,"1.7 µM, 24 h",baseline: solvent control,cell proliferation reduction,29.3%
COc1ccc(NC(=S)N/N=C/c2cccc3cc4ccccc4nc23)cc1,HeLa,PI flow cytometry,,"IC12.5, 48 h",,S phase cells,26.1 ± 0.8%
CC1(C)Oc2ccc(CC3=C(c4ccc(O)cc4)C(=O)NC3=O)cc2C[C@@H]1O,RPTEC,qPCR,,"10 µg/mL, 24 h, basal, no LPS",baseline: untreated,IL-6 mRNA level,no effect
Cc1cc(Nc2ncc(Cl)c(Nc3ccccc3S(=O)(=O)C(C)C)n2)c(OC(C)C)cc1C1CCNCC1,CLB-BAR,"phosphoproteomics LC-MS/MS, refers to: ATXN1L phosphorylation",,"200 nM, 60 min",baseline: untreated,log2 fold change,-4.19
Cc1cccc(-c2[nH]c(CNc3ccccc3F)nc2-c2ccc3ncnn3c2)n1,MM1.S pomalidomide-resistant,XTT,,3.5 µM,,viability,13% and 18%

# For quick reference, copied from above:
SMILES,target or system,test,test system,setting,how to read,endpoint,value
O=C(C[C@@H](C(F)F)n1ccc(F)n1)N1CCC(O)(Cn2cnc3c(cnn3-c3ccc(F)cc3)c2=O)CC1,CHP-212 parental,PI flow cytometry,,"0.3 µM, 24 h",,G1 phase cells,71.7%
COc1cnc2cccc(N3CCc4c(cc(Cn5ccnc5C)cc4-c4cn(C)nc4C(F)(F)F)C3=O)c2c1,SH-10-TC,"cell growth, inhibitor",,120 h,,EC50,853 nM
CC[C@H](C)C(=O)O[C@H]1C[C@@H](C)C=C2C=C[C@H](C)[C@H](CC[C@@H]3C[C@@H](O)CC(=O)O3)[C@H]21,BT-16,"cell viability, MTT",,"10 µM, 72 h",,inhibition,93.9%
